Assay results collected from several papers.
Compare with care: the assays were run in different laboratories. Numbers after ± are the reported error.

Structure (SMILES) | technique | species | medium | route | dose | setting | Cmax
OC[C@H]1O[C@@H](OCCc2ccc(O)cc2)[C@H](O)[C@@H](O)[C@@H]1O |  | Balb/c tumour-bearing mice | plasma | oral | 109.2 mg/kg SNZ |  | 292 ng/mL
Cc1cc(Oc2nccc3occc23)ccc1-c1c(C)c(=O)[nH]c(=O)n1C |  | Swiss albino male mice | plasma | intraperitoneal | 50 mg/kg |  | ~100000 nM
COc1cc(/C=C/C(=O)CC(=O)/C=C/c2ccc(O)c(OC)c2)ccc1O |  | C57BL/6 mice, female | plasma | intramuscular | 40 µL of 6 mM |  | 590 nM
CC(=O)C=Cc1ccc(O)c(O)c1 |  | obese male C57BL/6J mice | plasma | oral | 200 mg/kg | high-fat diet 8 weeks | 1290 ± 100 nM
CO[C@H]1C[C@@H]2CC[C@@H](C)[C@@](O)(O2)C(=O)C(=O)N2CCCC[C@H]2C(=O)O[C@H]([C@H](C)C[C@@H]2CC[C@@H](O)[C@H](OC)C2)CC(=O)[C@H](C)/C=C(\C)[C@@H](O)[C@@H](OC)C(=O)[C@H](C)C[C@H](C)/C=C/C=C/C=C/1C |  | NOD/SCID mice, male | blood or plasma | intraperitoneal | 0.5 mg/kg every 48 h |  | 983 ± 98 ng/mL
OCCc1ccc(O)cc1 |  | male C57BL/6J mice low-fat diet | plasma | oral | 200 mg/kg | diet 8 weeks | 15300 ± 3500 nM
O=c1c(O)c(-c2ccc(O)cc2)oc2cc(OS(=O)(=O)O)cc(O)c12 |  | FVB mice, male, Mrp2^−/− | plasma | oral | 10 mg/kg of kaempferol |  | 616 ± 59 nM
Cc1cc(Nc2cc3ncccc3c(N[C@@H]3C[C@H]4CC[C@@H](C3)N4CCC#N)n2)n[nH]1 |  | male BALB/c mice | plasma | oral | 10 mg/kg |  | 3 ± 2 nM
O=C(O[C@@H]1Cc2c(O)cc(O)cc2O[C@@H]1c1cc(O)c(O)c(O)c1)c1cc(O)c(O)c(O)c1 |  | male CB17 SCID mice | plasma | intravenous | 100 mg/kg | earliest sampling 5 min | 240000 nM
Nc1cc(-c2ccccc2)ccc1Cn1cncc1CNc1ccc(Cl)c(-c2ccccc2)c1 |  | female BALB/c mice | plasma | oral | 50 mg/kg single dose |  | 2800 ng/mL
OCCc1ccc(O)c(O)c1 |  | obese male C57BL/6J mice | plasma | oral | 200 mg/kg | high-fat diet 8 weeks | 147 ± 31 nM
COc1ccc2c(c1OCCCCS(=O)(=O)O)C(=O)O[C@@H]2[C@H]1c2c(cc3c(c2OC)OCO3)CCN1C |  | CD-1 mice, male | plasma | oral gavage | 50 mg/kg |  | 2970 ± 60.1 ng/mL
CC(O)CCc1ccc(O)cc1 (stereo not drawn) |  | normal-weight male C57BL/6J mice, low-fat diet | plasma | oral | 200 mg/kg of RK | diet for 8 weeks | 149000 ± 15000 nM
O=C(c1ccc(OCCN2CCCCC2)cc1)c1c(-c2ccc(O)cc2)sc2cc(O)ccc12 |  | C57BL/6 mice male | plasma | oral | 20 mg/kg | geometric mean | 140 nM
COc1ccc(CCC(C)=O)cc1 |  | male C57BL/6J mice low-fat diet | plasma | oral | 200 mg/kg | after enzymatic deconjugation | 79 ± 12 nM
CCCC1O[C@@H]2C[C@H]3[C@@H]4CCC5=CC(=O)C=C[C@]5(C)[C@H]4[C@@H](O)C[C@]3(C)[C@]2(C(=O)CO)O1 (stereo partly drawn) |  | CD1 mice | plasma | subcutaneous | 0.2 mg/kg |  | 73 nM
CC(=O)CCc1ccc(O)cc1 |  | normal-weight male C57BL/6J mice, low-fat diet | plasma | oral | 200 mg/kg | diet for 8 weeks | 236000 ± 20000 nM
CC[C@H](C)[C@@H]1NC(=O)[C@H](Cc2ccc(O)cc2)NC(=O)[C@@H](N)CSSC[C@@H](C(=O)N2CCC[C@H]2C(=O)N[C@@H](CC(C)C)C(=O)NCC(N)=O)NC(=O)[C@H](CC(N)=O)NC(=O)[C@H](CCC(N)=O)NC1=O | microdialysis, radioimmunoassay | C57BL/6J male mice, wild type | amygdala extracellular fluid | intraperitoneal | 12 µg total | i=12 | 1.25 ± 0.37 pg/sample
